# Experimental data gathered from unrelated publications.
# Protocols differ between the studies behind these lines. ± gives the spread as reported. Non-standard residues stand in square brackets, D forms with d. Square brackets hold non-standard residues; d marks the D form. Ends that are not written are not given here. No end group written: not given here.
# MMP1: MMP1 100-269 (Homo sapiens, UniProt P03956)
# Sequence of UniProt P03956 (whole entry, looked up): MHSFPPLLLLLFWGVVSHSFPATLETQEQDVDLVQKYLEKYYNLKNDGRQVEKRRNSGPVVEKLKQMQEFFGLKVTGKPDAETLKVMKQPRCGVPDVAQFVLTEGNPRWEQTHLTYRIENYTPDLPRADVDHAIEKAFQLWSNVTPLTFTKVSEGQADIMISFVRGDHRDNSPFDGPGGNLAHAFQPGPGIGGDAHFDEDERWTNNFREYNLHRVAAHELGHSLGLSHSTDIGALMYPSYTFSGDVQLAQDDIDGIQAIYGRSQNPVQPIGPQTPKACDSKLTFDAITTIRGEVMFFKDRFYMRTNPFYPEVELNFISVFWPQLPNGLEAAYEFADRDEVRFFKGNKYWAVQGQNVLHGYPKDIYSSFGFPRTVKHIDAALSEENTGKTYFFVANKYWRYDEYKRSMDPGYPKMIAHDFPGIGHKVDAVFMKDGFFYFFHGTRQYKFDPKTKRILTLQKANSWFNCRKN
# RB1 F897A/L901A/R908A: RB1 F897A/L901A/R908A (Homo sapiens, UniProt P06400)
# Sequence of UniProt P06400 (whole entry, unmodified, looked up): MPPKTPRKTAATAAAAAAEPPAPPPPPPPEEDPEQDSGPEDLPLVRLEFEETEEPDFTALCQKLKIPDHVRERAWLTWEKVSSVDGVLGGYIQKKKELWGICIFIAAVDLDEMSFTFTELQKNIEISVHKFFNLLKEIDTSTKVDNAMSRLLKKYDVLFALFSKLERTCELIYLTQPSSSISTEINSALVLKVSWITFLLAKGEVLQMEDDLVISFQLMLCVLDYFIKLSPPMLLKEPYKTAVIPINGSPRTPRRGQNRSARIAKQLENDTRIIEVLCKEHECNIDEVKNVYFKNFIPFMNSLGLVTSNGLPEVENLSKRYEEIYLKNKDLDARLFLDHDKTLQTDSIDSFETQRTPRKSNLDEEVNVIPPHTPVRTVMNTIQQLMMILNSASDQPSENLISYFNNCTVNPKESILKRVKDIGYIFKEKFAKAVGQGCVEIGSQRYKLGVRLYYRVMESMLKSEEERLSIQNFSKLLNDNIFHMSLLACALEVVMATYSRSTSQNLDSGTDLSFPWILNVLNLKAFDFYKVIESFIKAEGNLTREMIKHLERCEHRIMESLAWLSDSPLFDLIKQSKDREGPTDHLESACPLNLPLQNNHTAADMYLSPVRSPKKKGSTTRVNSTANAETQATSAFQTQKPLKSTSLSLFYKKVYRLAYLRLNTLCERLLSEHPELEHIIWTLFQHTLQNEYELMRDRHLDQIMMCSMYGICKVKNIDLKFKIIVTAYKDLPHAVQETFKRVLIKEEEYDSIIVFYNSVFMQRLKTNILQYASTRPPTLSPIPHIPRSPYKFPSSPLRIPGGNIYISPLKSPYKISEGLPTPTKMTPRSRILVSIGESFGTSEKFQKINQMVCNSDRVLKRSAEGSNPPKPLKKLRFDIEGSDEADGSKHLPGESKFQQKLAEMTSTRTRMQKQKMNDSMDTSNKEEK
# B1: RAB8A (Homo sapiens, UniProt P61006); sequence looked up; chain MAKTYDYLFKLLLIGDSGVGKTCVLFRFSEDAFNSTFISTIGIDFKIRTIELDGKRIKLQIWDTAGQERFRTITTAYYRGAMGIMLVYDITNEKSFDNIRNWIRNIEEHASADVEKMILGNKCDVNDKRQVSKERGEKLALDYGIKFMETSAKANINVENAFFTLARDIKAKMDKKLEGNSPQGSNQGVKITPDQQKRSSFFRCVLL
# B2: BEND3 (Homo sapiens, UniProt Q5T5X7); sequence looked up; chain MNSTEFTEDVEEVLKSITVKVETEAEDAALDCSVNSRTSEKHSVDSVLTALQDSSKRKQLVSDGLLDSVPGVKRRRLIPEALLAGMRNRENSSPCQGNGEQAGRGRSLGNVWPGEEEPCNDATTPSYKKPLYGISHKIMEKKNPPSGDLLNVYELFEKANASNSPSSLRLLNEPQKRDCGSTGAGTDNDPNIYFLIQKMFYMLNTLTSNMSQLHSKVDLLSLEVSRIKKQVSPTEMVAKFQPPPEYQLTAAELKQIVDQSLSGGDLACRLLVQLFPELFSDVDFSRGCSACGFAAKRKLESLHLQLIRNYVEVYYPSVKDTAVWQAECLPQLNDFFSRFWAQREMEDSQPSGQVASFFEAEQVDPGHFLDNKDQEEALSLDRSSTIASDHVVDTQDLTEFLDEASSPGEFAVFLLHRLFPELFDHRKLGEQYSCYGDGGKQELDPQRLQIIRNYTEIYFPDMQEEEAWLQQCAQRINDELEGLGLDAGSEGDPPRDDCYDSSSLPDDISVVKVEDSFEGERPGRRSKKIWLVPIDFDKLEIPQPDFEVPGADCLLSKEQLRSIYESSLSIGNFASRLLVHLFPELFTHENLRKQYNCSGSLGKKQLDPSRIKLIRHYVQLLYPRAKNDRVWTLEFVGKLDERCRRRDTEQRRSYQQQRKVHVPGPECRDLTSYAINPERFREEFEGPPLPPERSSKDFCKIPLDELVVPSPDFPVPSPYLLSDKEVREIVQQSLSVGNFAARLLVRLFPELFTAENLRLQYNHSGACNKKQLDPTRLRLIRHYVEAVYPVEKMEEVWHYECIPSIDERCRRPNRKKCDILKKAKKVEK
# B3: TIMP3 24-144 (Homo sapiens, UniProt P35625); sequence looked up; chain CTCSPSHPQDAFCNSDIVIRAKVVGKKLVKEGPFGTLVYTIKQMKMYRGFTKMPHVQYIHTEASESLCGLKLEVNKYQYLLTGRVYDGKMYTGLCNFVERWDQLTLSQRKGLNYRYHLGCN
# Sequence of UniProt Q16518 (whole entry, looked up): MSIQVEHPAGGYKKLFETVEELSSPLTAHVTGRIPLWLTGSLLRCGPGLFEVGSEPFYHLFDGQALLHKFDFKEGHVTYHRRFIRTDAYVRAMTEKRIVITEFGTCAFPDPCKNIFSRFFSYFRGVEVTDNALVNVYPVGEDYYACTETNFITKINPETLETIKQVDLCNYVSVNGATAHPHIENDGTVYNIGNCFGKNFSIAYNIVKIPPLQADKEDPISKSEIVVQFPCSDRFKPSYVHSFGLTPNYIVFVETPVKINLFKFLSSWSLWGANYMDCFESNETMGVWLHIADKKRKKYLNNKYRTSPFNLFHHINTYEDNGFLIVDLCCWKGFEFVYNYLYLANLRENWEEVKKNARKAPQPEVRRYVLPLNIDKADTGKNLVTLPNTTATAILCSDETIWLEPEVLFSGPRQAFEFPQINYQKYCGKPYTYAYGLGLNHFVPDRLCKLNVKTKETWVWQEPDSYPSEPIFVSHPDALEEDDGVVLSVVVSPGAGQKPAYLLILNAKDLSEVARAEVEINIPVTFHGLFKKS
# Sequence of UniProt Q62083 (whole entry, unmodified, looked up): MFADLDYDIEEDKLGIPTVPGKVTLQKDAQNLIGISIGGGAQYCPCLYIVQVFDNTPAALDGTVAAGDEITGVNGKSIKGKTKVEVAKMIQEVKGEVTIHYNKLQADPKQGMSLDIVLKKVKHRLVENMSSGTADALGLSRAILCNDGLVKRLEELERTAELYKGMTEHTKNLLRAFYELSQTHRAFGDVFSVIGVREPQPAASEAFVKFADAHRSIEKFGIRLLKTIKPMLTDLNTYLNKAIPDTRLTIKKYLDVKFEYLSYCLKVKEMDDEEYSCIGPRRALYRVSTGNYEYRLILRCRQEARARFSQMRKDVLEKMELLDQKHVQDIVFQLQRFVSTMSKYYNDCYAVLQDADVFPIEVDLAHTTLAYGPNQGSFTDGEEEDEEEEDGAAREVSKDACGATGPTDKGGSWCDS
# Sequence of UniProt Q2NKX8 (whole entry, unmodified, looked up): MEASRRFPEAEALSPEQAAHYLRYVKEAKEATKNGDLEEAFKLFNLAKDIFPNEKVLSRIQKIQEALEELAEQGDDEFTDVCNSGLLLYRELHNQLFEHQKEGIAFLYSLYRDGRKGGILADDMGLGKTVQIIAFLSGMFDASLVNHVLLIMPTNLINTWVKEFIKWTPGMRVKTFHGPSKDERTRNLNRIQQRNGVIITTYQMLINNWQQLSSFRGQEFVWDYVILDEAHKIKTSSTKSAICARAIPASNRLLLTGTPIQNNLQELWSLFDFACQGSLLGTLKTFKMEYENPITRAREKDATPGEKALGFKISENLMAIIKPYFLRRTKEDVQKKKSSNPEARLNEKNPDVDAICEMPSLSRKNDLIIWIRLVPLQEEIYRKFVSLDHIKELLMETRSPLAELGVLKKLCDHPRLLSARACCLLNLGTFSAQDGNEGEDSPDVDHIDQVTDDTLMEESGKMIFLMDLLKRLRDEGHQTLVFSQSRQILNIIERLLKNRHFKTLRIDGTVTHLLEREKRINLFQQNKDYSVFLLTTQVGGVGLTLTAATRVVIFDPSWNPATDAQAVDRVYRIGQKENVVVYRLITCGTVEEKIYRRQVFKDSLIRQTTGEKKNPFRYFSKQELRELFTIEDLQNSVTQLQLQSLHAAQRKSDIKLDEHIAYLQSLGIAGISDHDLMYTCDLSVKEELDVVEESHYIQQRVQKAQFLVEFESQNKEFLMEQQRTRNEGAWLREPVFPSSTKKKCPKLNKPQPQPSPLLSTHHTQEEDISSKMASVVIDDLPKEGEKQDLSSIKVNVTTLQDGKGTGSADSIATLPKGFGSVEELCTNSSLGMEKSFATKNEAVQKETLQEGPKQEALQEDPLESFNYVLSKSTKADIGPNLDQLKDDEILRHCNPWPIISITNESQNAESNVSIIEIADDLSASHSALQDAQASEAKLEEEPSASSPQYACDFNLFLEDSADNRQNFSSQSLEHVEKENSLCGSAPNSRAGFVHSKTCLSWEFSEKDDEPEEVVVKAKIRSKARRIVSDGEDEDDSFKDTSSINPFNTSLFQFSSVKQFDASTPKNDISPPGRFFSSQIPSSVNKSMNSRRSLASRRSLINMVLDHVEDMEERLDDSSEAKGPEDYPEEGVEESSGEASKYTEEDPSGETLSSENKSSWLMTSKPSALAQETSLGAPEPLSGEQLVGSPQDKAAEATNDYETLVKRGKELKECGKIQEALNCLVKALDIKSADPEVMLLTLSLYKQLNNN
# Sequence of UniProt P29350 (whole entry, unmodified, looked up): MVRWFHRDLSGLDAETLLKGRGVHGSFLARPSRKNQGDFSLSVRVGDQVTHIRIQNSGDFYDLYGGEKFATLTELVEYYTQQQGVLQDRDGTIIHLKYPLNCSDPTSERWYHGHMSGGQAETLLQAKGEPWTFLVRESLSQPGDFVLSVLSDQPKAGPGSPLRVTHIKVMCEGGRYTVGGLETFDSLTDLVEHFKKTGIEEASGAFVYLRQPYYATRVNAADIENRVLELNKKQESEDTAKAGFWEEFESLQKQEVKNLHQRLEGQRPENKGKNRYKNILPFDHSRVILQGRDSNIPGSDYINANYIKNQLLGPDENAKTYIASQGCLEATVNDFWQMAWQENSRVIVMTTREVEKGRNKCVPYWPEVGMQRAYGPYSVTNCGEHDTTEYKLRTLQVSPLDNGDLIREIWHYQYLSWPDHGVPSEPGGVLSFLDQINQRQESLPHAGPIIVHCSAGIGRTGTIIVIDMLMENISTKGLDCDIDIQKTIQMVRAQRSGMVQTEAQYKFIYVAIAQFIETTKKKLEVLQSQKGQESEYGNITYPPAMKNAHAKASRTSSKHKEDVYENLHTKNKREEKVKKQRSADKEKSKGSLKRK
# Sequence of UniProt O60656 (whole entry, looked up): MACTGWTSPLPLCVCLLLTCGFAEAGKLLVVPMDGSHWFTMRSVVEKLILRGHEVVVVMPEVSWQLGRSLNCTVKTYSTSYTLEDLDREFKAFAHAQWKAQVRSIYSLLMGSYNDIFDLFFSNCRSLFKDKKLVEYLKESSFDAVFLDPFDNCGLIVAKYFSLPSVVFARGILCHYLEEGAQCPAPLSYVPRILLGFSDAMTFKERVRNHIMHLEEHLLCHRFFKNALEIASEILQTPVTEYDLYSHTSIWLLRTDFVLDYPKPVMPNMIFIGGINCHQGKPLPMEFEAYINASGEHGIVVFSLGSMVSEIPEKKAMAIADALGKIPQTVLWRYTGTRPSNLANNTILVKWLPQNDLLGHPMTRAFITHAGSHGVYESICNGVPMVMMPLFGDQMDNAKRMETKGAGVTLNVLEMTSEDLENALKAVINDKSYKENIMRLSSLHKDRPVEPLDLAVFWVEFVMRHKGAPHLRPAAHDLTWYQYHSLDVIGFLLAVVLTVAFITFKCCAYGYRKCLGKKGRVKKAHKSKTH
# Sequence of UniProt P09038 (whole entry, looked up): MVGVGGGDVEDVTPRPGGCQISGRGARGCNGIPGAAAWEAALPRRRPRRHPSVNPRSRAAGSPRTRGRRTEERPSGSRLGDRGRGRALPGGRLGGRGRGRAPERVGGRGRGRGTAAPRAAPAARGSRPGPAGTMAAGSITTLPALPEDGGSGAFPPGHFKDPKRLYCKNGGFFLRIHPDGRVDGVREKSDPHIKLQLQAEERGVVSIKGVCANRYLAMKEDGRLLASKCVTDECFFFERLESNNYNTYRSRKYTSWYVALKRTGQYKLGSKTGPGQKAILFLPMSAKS
Substance,tested on,assay,test system,setting,scale,quantity,value
cytochrome c550 mature (Starkeya novella),sorT mature (Sinorhizobium meliloti),steady-state kinetics,,"pH 8.0, with: cytochrome as electron acceptor",,sulfite dehydrogenase activity,0.6 U/mg
"DLAT L2 domain, lipoylated",Pdk2 T302A (Rattus norvegicus),ITC,,"30 °C, with: ATP 10 mM",,ΔH,-16.6 kcal/mol
B1 (RAB8A),"Myo5a 1260-1853 (Mus musculus, UniProt Q99104)",pull-down,"CHO-IR, lysate","15 min, with: insulin 100 nM","baseline: basal without insulin, higher = more binding",relative binding,> 2 fold
WWC1 C-terminal truncation (Mus musculus),"Pick1 (Mus musculus, UniProt Q62083)",co-IP,HEK293T,,"baseline: wild-type KIBRA, higher = more binding",relative co-precipitation,2.49 fold
CFH mature protein V62I (Homo sapiens),C3b (UniProt P01024),fI-mediated C3b inactivation,,"haemolysis assay, sheep erythrocytes",,EC50,14 nM
MWSRSDHNLNKFWILHYSANPS (peptide),CD274 extracellular domain (Homo sapiens),BLI,peptide,,,koff,0.00264 s⁻¹
B2 (BEND3),"ERCC6L E11A/L13A/Y21A (Homo sapiens, UniProt Q2NKX8)",MST,,,"baseline: wild-type full length PICH, higher = weaker binding",relative Kd,1.5 fold
RFC1/RFC2/RFC3/RFC4/RFC5 Rfc1 284-end (Saccharomyces cerevisiae),"POL30 1-258 C22S/C62S/C81S/S43C, MDCC on Cys43 (Saccharomyces cerevisiae, UniProt P15873)",stopped-flow fluorescence,,"100 nM DNA, 20 °C, with: ATP 0.5 mM",,kobs of clamp release,0.41 ± 0.04 s⁻¹
"SERPINA1 S313C, Texas Red, Alexa Fluor 488",trypsin (Bos taurus),trypsin inhibition,,,,stoichiometry of inhibition,1.1
"CALM1 T26C, Alexa Fluor 568 at C26 (sequence not shown)",Camk2d T287A (Rattus norvegicus),FRET,,100 nM,"baseline: initial value, lower = more quenching",donor fluorescence intensity,60%
TIMP2 N-terminal domain S4E/V6R/V18M/I35V/N38Q/S68N/V71N/H97R,MMP1,"fluorogenic substrate cleavage, inhibitor, enzyme inhibition assay",,apparent,,Ki,0.78 nM
ETDKE[pY][pY]TVKD (JAK1 1029-1039; pY1034/pY1035; pY = N[C@@H](Cc1ccc(OP(=O)(O)O)cc1)C(=O)O),"PTPN6 243-530 Q252R/C453S (Homo sapiens, UniProt P29350)",ITC,peptide,,,ΔH,-17.4 ± 0.4 kcal/mol
GRGDSP (GRGDSP peptide),ITGA5/ITGB1 whole (Homo sapiens),"competition with ligand, radioligand binding",peptide,,,IC50,5500 nM
"NDC80/NUF2 truncated, GFP-fused (Homo sapiens)",TUBA1B/TUBB2B taxol-stabilized microtubules,"residence times, single-molecule TIRF microscopy",,30 °C,,koff,0.53 s⁻¹
GCVRLHESCLGQQVPCCDPAATCYCTGRGDSPASCYCR (AgRP variant),"ITGAV/ITGB3 whole, on cells (Homo sapiens)","competition with labeled echistatin, radioligand binding","designed binder, U87MG","3 h, room temperature, with: 125I-echistatin 0.06 nM",,IC50,1400 nM
"AEBP2 (Homo sapiens, UniProt Q6ZN18)","SUZ12 F99A/R103A/L105A/I106A (Homo sapiens, UniProt Q15022)",affinity purification mass spectrometry,"hiPSC, lysate",,"baseline: WT SUZ12, higher = less enriched",enrichment,53 fold
"CCND3/CDK4 fusion, linker (Homo sapiens)",RB1 F897A/L901A/R908A,in vitro kinase assay,,,"baseline: wild-type Rb, higher = greater difference",Rb phosphorylation,90 fold
"IDEYFSEQPLKNLLLSTSAAQIEKCFIIENISTIA (IFNAR1 478-512 E496A/E497A (Homo sapiens, UniProt P17181))","TYK2 23-583 (Homo sapiens, UniProt P29597)",differential scanning fluorimetry,peptide,,,apparent Tm reduction,> 5 °C
KVAK[pS]PKKAKAW (H1-5 168-178 (Homo sapiens); pS172; pS = N[C@@H](COP(=O)(O)O)C(=O)O),"PIN1 (Homo sapiens, UniProt Q13526)",EXSY NMR,peptide,"1 mM peptide, 25 °C",,exchange rate constant,5.8 s⁻¹
"CCND2/CDK4 fusion, linker (Homo sapiens)",RB1 F897A/L901A/R908A,in vitro kinase assay,,,"baseline: wild-type Rb, higher = greater difference",Rb phosphorylation,19 fold
"UGT1A9 (Homo sapiens, UniProt O60656)",COc1cc2ccc(=O)oc2cc1O,steady-state kinetics,,"pH 7.4, 37 °C",,Vmax/Km,192 µL/min/mg
SLC27A4 AMP-binding domain to C-terminus,"RPE65 (Homo sapiens, UniProt Q16518)",HPLC,293T-LC,"4 hours, normalised by RPE65 expression, with: all-trans-retinol 7 µM","baseline: pRK control, higher = stronger inhibition",inhibition of 11-cis-retinol synthesis,30%
B3 (TIMP3 24-144),MMP1,"inhibitor, steady-state kinetics",,"1 h, 37 °C, apparent, tight-binding fit",,Ki,0.9 nM
"ACTC1 (Homo sapiens, UniProt P68032)",heavy meromyosin HMM (Oryctolagus cuniculus),in vitro motility assay,,"model fit, with: alpha-actinin",,frictional load,249 pN
"FGF2 (Homo sapiens, UniProt P09038)","FGFR3 isoform IIIc (unknown, UniProt Q61851)","cell proliferation, MTT",BaF3-FGFR3c,"20 nM, 48 h, with: chondroitin sulfate C 4.9 µg/mL","baseline: FGF 1 with heparin, higher = more proliferation",cell proliferation,2%
"CANX (Canis lupus familiaris, UniProt P24643)","ATP1B2 (Homo sapiens, UniProt P14415)",co-IP,"MDCK, lysate","pH 7.5, 4 °C, NaCl 150 mM","baseline: YFP-β1, higher = more calnexin coprecipitated",relative coprecipitation,6.3 fold

# Some of these lines once more:
Substance,tested on,assay,test system,setting,scale,quantity,value
"ACTC1 (Homo sapiens, UniProt P68032)",heavy meromyosin HMM (Oryctolagus cuniculus),in vitro motility assay,,"model fit, with: alpha-actinin",,frictional load,249 pN
"FGF2 (Homo sapiens, UniProt P09038)","FGFR3 isoform IIIc (unknown, UniProt Q61851)","cell proliferation, MTT",BaF3-FGFR3c,"20 nM, 48 h, with: chondroitin sulfate C 4.9 µg/mL","baseline: FGF 1 with heparin, higher = more proliferation",cell proliferation,2%
